Experimental data collected from several papers.
Each line is one published result; not all experiments were run side by side. Numbers after ± are the reported error.

| Compound | system | setting | tissue uptake |
| --- | --- | --- | --- |
| CCCC[C@H](NC(=O)CNC(=O)CNC(=O)c1ccc(NN)nc1)C(=O)N[C@H]1CC(=O)NCCCC[C@@H](C(N)=O)NC(=O)[C@H](Cc2c[nH]c3ccccc23)NC(=O)[C@H](CCCNC(=N)N)NC(=O)[C@@H](Cc2ccccc2)NC(=O)[C@H](Cc2c[nH]cn2)NC1=O [technetium-99m labelled] | C57 mouse, B16/F1 melanoma-bearing, liver | intravenous, 0.5 h | 1.15 ± 0.08 %ID/g |
| N=C(N)NCCC[C@@H]1NC(=O)[C@H](CCCCNC(=O)CNC(=O)CNC(=O)CNC(=O)CC[C@H](NC(=O)c2ccc(NN=Cc3ccccc3S(=O)(=O)O)nc2)C(=O)NCC(=O)NCC(=O)NCC(=O)NCCCC[C@@H]2NC(=O)[C@@H](Cc3ccccc3)NC(=O)[C@H](CC(=O)O)NC(=O)CNC(=O)[C@H](CCCNC(=N)N)NC2=O)NC(=O)[C@@H](Cc2ccccc2)NC(=O)[C@H](CC(=O)O)NC(=O)CNC1=O [technetium-99m labelled] | athymic nu/nu mouse, female, U-87 MG glioma xenograft, kidney | intravenous, 120 min | 9.99 ± 0.61 %ID/g |
| N=C(N)NCCC[C@@H]1NC(=O)[C@H](CCCCNC(=O)CNC(=O)CNC(=O)CNC(=O)CC[C@H](NC(=O)CCOCCOCCOCCOCCNC(=O)CC[C@H](NC(=O)CN2CCN(CC(=O)O)CCN(CC(=O)O)CCN(CC(=O)O)CC2)C(=O)NCCOCCOCCOCCOCCC(=O)N[C@@H](CCC(=O)NCC(=O)NCC(=O)NCC(=O)NCCCC[C@@H]2NC(=O)[C@@H](Cc3ccccc3)NC(=O)[C@H](CC(=O)O)NC(=O)CNC(=O)[C@H](CCCNC(=N)N)NC2=O)C(=O)NCC(=O)NCC(=O)NCC(=O)NCCCC[C@@H]2NC(=O)[C@@H](Cc3ccccc3)NC(=O)[C@H](CC(=O)O)NC(=O)CNC(=O)[C@H](CCCNC(=N)N)NC2=O)C(=O)NCC(=O)NCC(=O)NCC(=O)NCCCC[C@@H]2NC(=O)[C@@H](Cc3ccccc3)NC(=O)[C@H](CC(=O)O)NC(=O)CNC(=O)[C@H](CCCNC(=N)N)NC2=O)NC(=O)[C@@H](Cc2ccccc2)NC(=O)[C@H](CC(=O)O)NC(=O)CNC1=O [indium-111 labelled] | athymic nude mice, female, U-87 MG glioma xenograft, bone | intravenous, 3 µCi, 4 h | 1.24 ± 0.16 %ID/g |
| CCCC[C@H](NC(=O)CCCCCCCNC(=O)c1ccc(NN)nc1)C(=O)N[C@H]1CC(=O)NCCCC[C@@H](C(N)=O)NC(=O)[C@H](Cc2c[nH]c3ccccc23)NC(=O)[C@H](CCCNC(=N)N)NC(=O)[C@@H](Cc2ccccc2)NC(=O)[C@H](Cc2c[nH]cn2)NC1=O [technetium-99m labelled] | C57 mouse, B16/F1 melanoma, tumor | 2 h, added: NDP-MSH 10 µg (6.07 nmol) co-injected | 1.26 ± 0.59 %ID/g |
| CSCC[C@H](NC(=O)[C@H](CC(C)C)NC(=O)[C@H](Cc1c[nH]cn1)NC(=O)CNC(=O)[C@@H](NC(=O)[C@H](C)NC(=O)[C@H](Cc1c[nH]c2ccccc12)NC(=O)[C@H](CCC(N)=O)NC(=O)CNC(=O)[C@H](CO)NC(=O)CNC(=O)CCCCCCCNC(=O)CCC(=O)Nc1ccc(CNC23CNCCNCC(N)(CNCCNC2)CNCCNC3)cc1)C(C)C)C(N)=O [copper-64 labelled] | female SCID mice, PC-3 xenograft, spleen | intravenous, 0.6 MBq, 1 h | 1.51 ± 0.063 %ID/g |
| N=C(N)NCCC[C@@H]1NC(=O)[C@H](CCCCNC(=O)CC[C@H](NC(=O)CCOCCOCCOCCOCCNC(=O)CC[C@H](NC(=O)CN2CCN(CC(=O)O)CCN(CC(=O)O)CCN(CC(=O)O)CC2)C(=O)NCCOCCOCCOCCOCCC(=O)N[C@@H](CCC(=O)NCCCC[C@@H]2NC(=O)[C@@H](Cc3ccccc3)NC(=O)[C@H](CC(=O)O)NC(=O)CNC(=O)[C@H](CCCNC(=N)N)NC2=O)C(=O)NCCCC[C@@H]2NC(=O)[C@@H](Cc3ccccc3)NC(=O)[C@H](CC(=O)O)NC(=O)CNC(=O)[C@H](CCCNC(=N)N)NC2=O)C(=O)NCCCC[C@@H]2NC(=O)[C@@H](Cc3ccccc3)NC(=O)[C@H](CC(=O)O)NC(=O)CNC(=O)[C@H](CCCNC(=N)N)NC2=O)NC(=O)[C@@H](Cc2ccccc2)NC(=O)[C@H](CC(=O)O)NC(=O)CNC1=O [indium-111 labelled] | female athymic nude mice, kidney | intravenous, 3 µCi, 4 h, U-87 MG glioma xenograft | 5.68 ± 0.66 %ID/g |
| C[C@@H](O)[C@H](NC(=O)[C@@H]1CSSC[C@H](NC(=O)[C@@H](Cc2ccccc2)NC(=O)CN2CCCN3CCN(CCCN(CP(=O)(O)O)CC3)CC2)C(=O)N[C@@H](Cc2ccc(O)cc2)C(=O)N[C@H](Cc2c[nH]c3ccccc23)C(=O)N[C@@H](CCCCN)C(=O)N[C@@H]([C@@H](C)O)C(=O)N1)C(=O)O [copper-64 labelled] | Lewis rat, male, tumour-bearing, pancreas | injection, 4 h | 6 ± 0.1 %ID/g |
| N=C(N)NCCC[C@@H]1NC(=O)[C@H](CCCCNC(=O)CCOCCOCCOCCOCCNC(=O)CN2CCN(CC(=O)O)CCN(CC(=O)O)CCN(CC(=O)O)CC2)NC(=O)[C@@H](Cc2ccccc2)NC(=O)[C@H](CC(=O)O)NC(=O)CNC1=O [indium-111 labelled] | female athymic nude mice, liver | intravenous, 3 µCi, 0.5 h, U-87 MG glioma xenograft | 2.79 ± 0.02 %ID/g |
| CSCC[C@H](NC(=O)[C@H](CC(C)C)NC(=O)[C@H](Cc1c[nH]cn1)NC(=O)CNC(=O)[C@@H](NC(=O)[C@H](C)NC(=O)[C@H](Cc1c[nH]c2ccccc12)NC(=O)[C@H](CCC(N)=O)NC(=O)CCCCNC(=O)CSCCSCCP(CO)CO)C(C)C)C(N)=O [technetium-99m labelled] | female CF-1 mouse, whole blood | intravenous, 4 h | 0.15 %ID/g |
| CSCC[C@H](NC(=O)[C@H](CC(C)C)NC(=O)[C@H](Cc1c[nH]cn1)NC(=O)CNC(=O)[C@@H](NC(=O)[C@H](C)NC(=O)[C@H](Cc1c[nH]c2ccccc12)NC(=O)[C@H](CCC(N)=O)NC(=O)CCCCCNC(=O)CNC(=O)CNC(=O)CNC(=O)CSC(C)=O)C(C)C)C(N)=O [technetium-99m labelled] | Swiss mouse, heart | intravenous, 18.5 MBq, 90 min | 0.06 ± 0.01 %ID/g |
